Experimental data of several laboratories.
Each line is one published result; not all experiments were run side by side. ± gives the spread as reported.

The tissue uptake of N=C(N)NCc1ccc(C(=O)NCCCC[C@H](NC(=O)N[C@@H](CCC(=O)O)C(=O)O)C(=O)O)cc1[131I] is reported as 0.74 ± 0.16 %ID/g (SCID mouse, PC-3 xenografts, stomach; 1 h).
CC(C)[C@H](NC(=O)CNC(=O)[C@H](CCC(N)=O)NC(=O)[C@H](C)N)C(=O)O — result for “subjects with severe adverse events”: 0% (human; intravenous infusion, 45 mg/kg/h, 2 h infusion).
C#Cc1c(F)ccc2cc(O)cc(-c3ncc4c(N5CC6CCC(C5)N6C(=O)OC(C)OC(=O)CCCC)nc(OC[C@@]56CCCN5C[C@H](F)C6)nc4c3F)c12 (stereo partly drawn) gave a compound remaining of 63.9% (chemical stability; simulated intestinal fluid; 1 µM, 30 min).
CCCCCCCC(=O)NCCCC[C@H](NC(=O)[C@H](Cc1ccccc1)NC(=O)[C@@H](CCCNC(=N)N)NC(=O)[C@@H](N)Cc1ccc(O)cc1)C(N)=O gave a terminal half-life of 1.8 h (mouse, CD-1, male, brain; intravenous, 3 mg/kg).
For CC(C)C[C@H](NC(=O)CNC(=O)[C@H](CCCCN)NC(=O)[C@@H](N)CC(C)C)C(=O)N[C@@H](C)C(=O)N[C@@H](C)C(=O)N[C@@H](CCCCN)C(=O)N[C@@H](CC(C)C)C(=O)N[C@@H](CC(C)C)C(=O)NCC(=O)N[C@@H](CC(C)C)C(=O)N[C@@H](CCCCN)C(=O)N[C@@H](CCCCN)C(=O)O, the haemolysis was 6.57% (rabbit erythrocytes; 128 µM, 4 h, 37 °C).
For CCCCCCCC(=O)OC[C@H](NC(=O)[C@H](CO)NC(=O)CN)C(=O)N[C@@H](Cc1ccccc1)C(=O)N[C@@H](CC(C)C)C(=O)N[C@@H](CO)C(=O)N1CCC[C@H]1C(=O)N[C@@H](CCC(=O)O)C(=O)N[C@@H](Cc1cnc[nH]1)C(=O)N[C@@H](CCC(N)=O)C(=O)N[C@@H](CCCNC(=N)N)C(=O)N[C@H](C(=O)N[C@@H](CCC(N)=O)C(=O)N[C@@H](CCC(N)=O)C(=O)N[C@@H](CCCNC(=N)N)C(=O)N[C@@H](CCCCN)C(=O)N[C@@H](CCC(=O)O)C(=O)N[C@@H](CO)C(=O)N[C@@H](CCCCN)C(=O)N[C@@H](CCCCN)C(=O)N1CCC[C@H]1C(=O)N1CCC[C@H]1C(=O)N[C@@H](C)C(=O)N[C@@H](CCCCN)C(=O)N[C@@H](CC(C)C)C(=O)N[C@@H](CCC(N)=O)C(=O)N1CCC[C@H]1C(=O)N[C@@H](CCCNC(=N)N)C(=O)O)C(C)C, “AUC fold change” read 6 fold (human, plasma; intravenous infusion, 5 µg/kg/h; relative to: 1 µg/kg/h dose).
CCCCC[C@@H]1OC(=O)[C@@H](C)N(C)C(=O)[C@H](CCCCC)OC(=O)[C@@H](C)N(C)C(=O)[C@H](CCCCC)OC(=O)[C@@H](C)N(C)C(=O)[C@H](CCCCC)OC(=O)[C@@H](C)N(C)C1=O has a recovery of 94% (PAMPA; lecithin in n-dodecane membrane; 500 µM, time not given, pH 7.4, PBS with TPGS and DMSO).
The tmax of [2H]C([2H])([2H])C([2H])([2H])C([2H])([2H])OC(C(=O)OC1CCNCC1)(c1ccccc1)c1ccccc1 is reported as 4.3 h (healthy Japanese male subjects, plasma; oral, 10 mg, day 1, mean).
With CC[C@H](C)C(=O)N1CCC(NC(=O)Nc2ccc(OC(F)(F)F)c(F)c2)CC1 the Tmax was 8.25 h (human, plasma; oral, 8 mg, single dose, fed).
CSCC[C@@H]1NC(=O)[C@@H]2CSSC[C@H](NC(=O)[C@H](CO)NC(=O)[C@H](C)N)C(=O)N[C@@H](CCCNC(=N)N)C(=O)N[C@@H]([C@@H](C)O)C(=O)N3CCC[C@H]3C(=O)N[C@@H](CCCCN)C(=O)N[C@@H](CC(=O)O)C(=O)N[C@H]3CSSC[C@H](NC(=O)[C@H](CCCCN)NC(=O)[C@H](CCCNC(=N)N)NC(=O)[C@H](CC(N)=O)NC1=O)C(=O)N[C@@H](CCCCN)C(=O)N[C@H]1CSSC[C@H](NC(=O)[C@@H]4CCCN4C(=O)[C@H](CC(=O)O)NC(=O)[C@H](C)NC3=O)C(=O)N[C@@H](C)C(=O)N[C@@H](CCCCN)C(=O)N[C@@H](CCC(=O)O)C(=O)N[C@@H]([C@@H](C)O)C(=O)NCC(=O)N[C@@H](CSSC[C@@H](C(N)=O)NC(=O)[C@H](CCCNC(=N)N)NC(=O)[C@H](CC(N)=O)NC1=O)C(=O)N1CCC[C@H]1C(=O)N[C@@H](Cc1ccc(O)cc1)C(=O)NCC(=O)N[C@@H](CCCCN)C(=O)N2 has a Creatinine of 0.2 mg/dL (DA rat pristane-induced arthritis, serum; subcutaneous, 0.1 mg/kg single dose at onset, 21 days).
The median concentration of O=S(=O)(O)C(F)(F)C(F)(F)OC(F)(C(F)(F)F)C(F)(F)OC(F)C(F)(F)F (stereo not drawn) is reported as 4.14 ng/mL (human, exposed residents, serum; November 2017, 5 months after discharge).
CN(C)C(CNC(=O)Nc1cc(C(F)(F)F)ccc1N1CCOCC1)c1ccncc1 (stereo not drawn) has a serum magnesium of 2.5 mg/dL (mouse, serum; intraperitoneal, 240 mg/kg single dose).

Some of these lines once more:
CCCCC[C@@H]1OC(=O)[C@@H](C)N(C)C(=O)[C@H](CCCCC)OC(=O)[C@@H](C)N(C)C(=O)[C@H](CCCCC)OC(=O)[C@@H](C)N(C)C(=O)[C@H](CCCCC)OC(=O)[C@@H](C)N(C)C1=O has a recovery of 94% (PAMPA; lecithin in n-dodecane membrane; 500 µM, time not given, pH 7.4, PBS with TPGS and DMSO).
